Results of several laboratories.
Parts stem from different laboratories: compare values within a part only. Positions count from the first letter of the parent shown.

Set 1
Target: CCNF, cyclin fold, Cln2 fusion (human)
Method: yeast growth competition, sequencing
Medium: yeast
Notes: strong parent motif
Baseline: not given
Reading: higher = stronger binding
Starting sequence: viral docking peptide; YKVKRRLVFGADD; partner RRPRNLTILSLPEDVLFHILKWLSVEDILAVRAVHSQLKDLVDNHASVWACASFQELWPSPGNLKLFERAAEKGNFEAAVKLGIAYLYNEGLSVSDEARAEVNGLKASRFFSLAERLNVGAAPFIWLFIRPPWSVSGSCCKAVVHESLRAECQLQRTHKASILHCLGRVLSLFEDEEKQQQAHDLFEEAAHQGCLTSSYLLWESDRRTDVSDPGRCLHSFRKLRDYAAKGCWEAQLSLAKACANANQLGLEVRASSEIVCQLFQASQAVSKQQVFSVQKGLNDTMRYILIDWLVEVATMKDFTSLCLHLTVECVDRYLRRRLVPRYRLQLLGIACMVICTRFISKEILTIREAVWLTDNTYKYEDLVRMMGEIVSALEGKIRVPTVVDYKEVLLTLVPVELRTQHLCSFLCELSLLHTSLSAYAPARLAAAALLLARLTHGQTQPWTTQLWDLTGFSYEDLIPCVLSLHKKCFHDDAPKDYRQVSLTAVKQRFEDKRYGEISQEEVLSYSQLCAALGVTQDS
| Substitution | normalised enrichment score |
| --- | --- |
| YKVKIRLVFGADD [R5I] | 3.66 |
| YKVKRRQVFGADD [L7Q] | 0.452 |
| YSVKRRLVFGADD [K2S] | 7.93 |
| YKYKRRLVFGADD [V3Y] | 7.58 |
| YKVERRLVFGADD [K4E] | 6.81 |
| YKVKRRLVFGATD [D12T] | 9.41 |
| YKVKRRLVFPADD [G10P] | 8.24 |
| YKVKRNLVFGADD [R6N] | 7.55 |
| YKVKRRLGFGADD [V8G] | 8.33 |
| AKVKRRLVFGADD [Y1A] | 9.34 |
| YKVKRRLTFGADD [V8T] | 8.12 |
| YKVCRRLVFGADD [K4C] | 8.72 |
| YKVKRRLVFSADD [G10S] | 8.27 |
| YKVKRRLVFGYDD [A11Y] | 8.72 |
| YKVKFRLVFGADD [R5F] | 1.04 |

Set 2
Target: HLA class I histocompatibility antigen, C alpha chain, allele C*04:01 (Homo sapiens, UniProt P10321)
Effect on: peptide-MHC binding
Form: peptide
Concentration: concentration not given
| Sequence | binding |
| --- | --- |
| HEWKIPLLI | inactive |
| YWMGGTTYF | active |
| TTIPTNLFR | inactive |

Set 3
Target: Sal-like protein 4, full length isoform B (SALL4, Homo sapiens, UniProt Q9UJQ4-2, residues 1-616)
Method: universal PBM
Form: double-stranded DNA, one strand shown
Medium: in vitro
Concentration: not given
Notes: 8-mer, flanks averaged, mean of replicates
Reading: higher = stronger binding
Target sequence (chain): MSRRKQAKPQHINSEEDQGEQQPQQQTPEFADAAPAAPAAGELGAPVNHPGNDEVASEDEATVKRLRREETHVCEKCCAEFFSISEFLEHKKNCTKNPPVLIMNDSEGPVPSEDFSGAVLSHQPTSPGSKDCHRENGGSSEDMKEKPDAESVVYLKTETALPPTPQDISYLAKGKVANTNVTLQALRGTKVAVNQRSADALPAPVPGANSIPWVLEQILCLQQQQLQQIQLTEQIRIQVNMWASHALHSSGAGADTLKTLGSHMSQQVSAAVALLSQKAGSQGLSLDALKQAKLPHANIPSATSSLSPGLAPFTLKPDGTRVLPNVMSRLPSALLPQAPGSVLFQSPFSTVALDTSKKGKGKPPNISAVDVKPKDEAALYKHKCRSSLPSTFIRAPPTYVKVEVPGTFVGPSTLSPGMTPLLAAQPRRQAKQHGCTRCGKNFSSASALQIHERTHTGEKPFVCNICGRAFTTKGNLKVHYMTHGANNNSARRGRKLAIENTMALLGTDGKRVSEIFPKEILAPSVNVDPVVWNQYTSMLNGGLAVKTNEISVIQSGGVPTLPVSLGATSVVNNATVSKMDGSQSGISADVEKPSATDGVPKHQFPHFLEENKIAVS
| Sequence | E-score |
| --- | --- |
| ACGCATGA | 0.0884 |
| ATTCTACC | 0.22 |
| CGCACCTA | -0.121 |
| AAGGTAAT | 0.212 |
| AGTAGCAC | -0.154 |
| ACGACTAG | 0.0467 |
| AAGACGGA | -0.198 |
| CATAGAGC | -0.142 |

Set 4
Target: Ras GTPase-activating protein-binding protein 1, full length (G3BP1, Homo sapiens, UniProt Q13283)
Chain of UniProt Q13283 (whole entry, looked up): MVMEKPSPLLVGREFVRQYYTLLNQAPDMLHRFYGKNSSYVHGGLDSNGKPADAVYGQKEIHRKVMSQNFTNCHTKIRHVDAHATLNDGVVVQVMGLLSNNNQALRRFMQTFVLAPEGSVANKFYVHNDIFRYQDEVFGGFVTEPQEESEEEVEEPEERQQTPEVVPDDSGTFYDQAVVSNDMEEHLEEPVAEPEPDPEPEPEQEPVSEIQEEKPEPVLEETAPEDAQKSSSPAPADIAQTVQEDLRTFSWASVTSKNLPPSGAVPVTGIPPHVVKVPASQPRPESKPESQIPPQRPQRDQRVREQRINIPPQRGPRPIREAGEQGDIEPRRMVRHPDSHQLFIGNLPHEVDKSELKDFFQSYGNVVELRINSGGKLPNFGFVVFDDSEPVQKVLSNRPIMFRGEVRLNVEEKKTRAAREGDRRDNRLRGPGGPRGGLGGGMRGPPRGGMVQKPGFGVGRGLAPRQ
Method: RNA Bind-n-Seq
Form: RNA
Medium: in vitro
Concentration: 200 nM
Notes: whole 134-nt RNA, ends assumed
Added: 150 mM LiCl
Baseline: input library
Reading: higher = stronger binding
Library: 7-deaza-guanosine replaces G
Shared flanks, not repeated: GGGAGUUCUACAGUCCGACGAUC … UGGAAUUCUCGGGUGUCAAGG
| Sequence | log2 enrichment |
| --- | --- |
| AAGUCCUGUGCUACACAUCGUAUGUACCGAAUCGGAAAAAAAGGAAAGGAAAAAGGAAAGUAUUAUGUUACGCCGUUCGGAUCUGCACUU | -0.891 |
| GGGCCCUGGUGGCAUGCGGGGAGGAAGAGGUGGCCUCAUGGAUCGUGGUGGUCCCGGUGGAAUGUUCAGAGGUGGCCGUGGUGGAGACAG | 0.32 |
| AGUCCUGUGCUACACAUCGUAUGUACCGAAUCAAAUUUAAAUUUAAAUUUUUUUAAAAAAGUAUUAUGUUACGCCGUUCGGAUCUGCACU | -2.88 |
| UGGCCCUGGUGGCAUGCGGGGAGGAAGAGGUGGCCUCAUGGAUCGUGGUGGUCCCGGUGGAAUGUUCAGAGGUGGCCGUGGUGGAGGCAG | -0.286 |
| AGUCCUGUGCUACACAUCGUAUGUACCGAAUCGGGUUUUGGGGUUUUGGGUUUUGGGGAAAGUAUUAUGUUACGCCGUUCGGAUCUGCAC | 0.581 |
| CAAGUCCUGUGCUACACAUCGUAUGUACCGAAUCGGAAAAAGGAAAAAGGAAAGGAAAGUAUUAUGUUACGCCGUUCGGAUCUGCACUUC | -0.871 |
| UCAAGUCCUGUGCUACACAUCGUAUGUACCGAAUCGGGCCGGCCGGGGCCGGGGAAAGUAUUAUGUUACGCCGUUCGGAUCUGCACUUCC | 0.0303 |
| GUCCUGUGCUACACAUCGUAUGUACCGAAUCGGGAGGGAAAAAAAGGGAAAAAAAGGGAAAGUAUUAUGUUACGCCGUUCGGAUCUGCAC | 0.371 |

Mixed results
| Molecule | partner | method | notes | measurement | value |
| --- | --- | --- | --- | --- | --- |
| H1-4 (Homo sapiens, UniProt P10412) | H1-5 (Homo sapiens, UniProt P16401) | cross-linking MS | hits only | interaction screen | cross-linked |

A few entries again (set 1):
| Substitution | normalised enrichment score |
| --- | --- |
| YKYKRRLVFGADD [V3Y] | 7.58 |
| YKVERRLVFGADD [K4E] | 6.81 |
| YKVKRRLVFGATD [D12T] | 9.41 |
| YKVKRRLVFPADD [G10P] | 8.24 |
| YKVKRNLVFGADD [R6N] | 7.55 |
| YKVKRRLGFGADD [V8G] | 8.33 |
